Assay results of several laboratories.
Each numbered part is a random draw from the data of one study; scales do not carry over between parts. Substitutions count along the parent as printed.
Sequence of UniProt P08922 (whole entry, looked up): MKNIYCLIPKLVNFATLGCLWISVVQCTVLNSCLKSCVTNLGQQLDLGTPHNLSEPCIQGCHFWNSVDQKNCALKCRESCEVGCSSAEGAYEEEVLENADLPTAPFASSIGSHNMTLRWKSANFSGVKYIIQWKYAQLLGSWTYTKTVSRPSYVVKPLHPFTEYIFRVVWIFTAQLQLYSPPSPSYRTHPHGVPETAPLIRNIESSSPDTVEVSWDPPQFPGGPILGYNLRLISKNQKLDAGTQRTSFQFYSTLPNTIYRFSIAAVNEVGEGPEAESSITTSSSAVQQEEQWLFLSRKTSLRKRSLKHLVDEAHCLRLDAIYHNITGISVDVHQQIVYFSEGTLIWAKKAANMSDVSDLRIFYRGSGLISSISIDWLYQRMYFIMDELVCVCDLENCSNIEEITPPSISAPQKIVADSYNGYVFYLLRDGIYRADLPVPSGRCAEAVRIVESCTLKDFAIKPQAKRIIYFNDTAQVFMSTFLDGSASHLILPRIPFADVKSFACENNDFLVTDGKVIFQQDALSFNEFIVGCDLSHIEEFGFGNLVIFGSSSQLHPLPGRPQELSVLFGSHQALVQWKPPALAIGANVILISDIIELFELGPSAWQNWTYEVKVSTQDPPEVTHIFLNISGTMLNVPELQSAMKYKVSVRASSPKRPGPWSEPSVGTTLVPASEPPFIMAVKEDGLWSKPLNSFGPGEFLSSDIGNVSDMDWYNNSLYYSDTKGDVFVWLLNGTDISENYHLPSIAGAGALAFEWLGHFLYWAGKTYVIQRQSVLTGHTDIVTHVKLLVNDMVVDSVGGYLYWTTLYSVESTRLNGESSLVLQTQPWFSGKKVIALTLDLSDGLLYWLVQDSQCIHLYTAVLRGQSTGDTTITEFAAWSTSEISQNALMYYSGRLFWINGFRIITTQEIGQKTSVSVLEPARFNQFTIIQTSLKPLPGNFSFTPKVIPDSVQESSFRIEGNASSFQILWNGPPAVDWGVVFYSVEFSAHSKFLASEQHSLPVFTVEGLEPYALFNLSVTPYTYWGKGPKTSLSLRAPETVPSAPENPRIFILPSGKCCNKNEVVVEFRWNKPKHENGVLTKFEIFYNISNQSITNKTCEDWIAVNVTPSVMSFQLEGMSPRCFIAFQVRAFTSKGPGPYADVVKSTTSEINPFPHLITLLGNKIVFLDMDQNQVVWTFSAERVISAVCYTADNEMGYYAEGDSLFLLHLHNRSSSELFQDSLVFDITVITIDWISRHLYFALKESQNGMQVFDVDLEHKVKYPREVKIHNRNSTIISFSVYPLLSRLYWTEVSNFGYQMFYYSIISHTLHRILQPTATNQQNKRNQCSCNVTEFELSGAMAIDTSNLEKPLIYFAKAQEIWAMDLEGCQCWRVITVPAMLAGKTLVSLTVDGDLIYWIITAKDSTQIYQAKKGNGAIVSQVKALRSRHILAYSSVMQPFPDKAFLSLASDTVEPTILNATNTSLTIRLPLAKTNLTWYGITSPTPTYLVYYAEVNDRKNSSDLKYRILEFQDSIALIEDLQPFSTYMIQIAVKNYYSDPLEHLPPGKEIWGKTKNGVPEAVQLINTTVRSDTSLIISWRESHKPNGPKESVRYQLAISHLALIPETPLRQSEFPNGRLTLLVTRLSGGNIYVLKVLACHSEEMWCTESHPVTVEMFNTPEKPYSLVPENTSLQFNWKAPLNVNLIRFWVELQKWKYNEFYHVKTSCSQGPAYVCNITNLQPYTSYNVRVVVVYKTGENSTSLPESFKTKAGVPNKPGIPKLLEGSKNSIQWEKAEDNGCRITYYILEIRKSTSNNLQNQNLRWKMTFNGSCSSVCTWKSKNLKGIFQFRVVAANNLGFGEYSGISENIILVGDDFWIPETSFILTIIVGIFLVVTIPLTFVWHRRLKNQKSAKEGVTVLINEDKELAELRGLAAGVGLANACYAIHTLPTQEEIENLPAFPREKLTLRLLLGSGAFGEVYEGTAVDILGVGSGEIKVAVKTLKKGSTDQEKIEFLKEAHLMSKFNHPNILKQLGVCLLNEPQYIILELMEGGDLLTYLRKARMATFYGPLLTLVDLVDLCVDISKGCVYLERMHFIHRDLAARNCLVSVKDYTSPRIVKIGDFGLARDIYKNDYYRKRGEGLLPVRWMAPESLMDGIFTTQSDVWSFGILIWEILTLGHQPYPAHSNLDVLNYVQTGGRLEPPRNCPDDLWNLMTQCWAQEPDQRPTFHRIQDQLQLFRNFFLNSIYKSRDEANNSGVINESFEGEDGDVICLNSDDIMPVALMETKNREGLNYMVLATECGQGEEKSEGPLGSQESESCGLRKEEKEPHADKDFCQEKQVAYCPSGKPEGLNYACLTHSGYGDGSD

Set 1
Target: HLA class I histocompatibility antigen, A alpha chain, allele A*26:03 (Homo sapiens, UniProt P04439)
Observed: peptide-MHC binding
Form: peptide
Concentration: concentration not given
Sequence	binding
RVYNNTARY	inactive
LTFLDCLYY	inactive
YHLGGIEGL	inactive
KLKSLYNTV	inactive
SQIETGTPF	inactive
EKLKSLFNTV	inactive
KVQEWYLSY	inactive
MGKTITDVK	inactive

Set 2
Target: CCNA1, cyclin fold, Cln2 fusion (human)
Method: yeast growth competition, sequencing
Matrix: yeast
Notes: strong parent motif
Baseline: not given
Reading: higher = stronger binding
Starting sequence: viral docking peptide; TSVRRALFTGGSD
Variant	normalised enrichment score
T9R	0.726
L7D	0.0101
G11L	0.795
R4F	-0.231
R5T	-0.131
T9D	1.01
S2C	1.26
F8Y	0.0396

Further values, each from its own experiment
SMILES	target or system	assay	setting	scale	measurement	value
COc1ccc(OC)c([C@@H](O)[C@H](C)N)c1	A-375		100 µM, 36 h		viability	115%
CC(C)(C)c1cc(C=C(C#N)C#N)cc(Br)c1O	Proto-oncogene tyrosine-protein kinase ROS (ROS1, Homo sapiens, UniProt P08922)	enzyme activity, inhibitor	0.5 µM	baseline: control	remaining activity	93.2%
N[C@@H](Cc1ccc(N(CCCl)CCCl)cc1)C(=O)O	A-375		100 µM, 36 h		viability	8.14%

Some of these lines once more (set 1):
Sequence	binding
YHLGGIEGL	inactive
KLKSLYNTV	inactive
SQIETGTPF	inactive
